# Results gathered from unrelated publications.
# Parts stem from different laboratories: compare values within a part only. Changes are numbered by the printed parent chain.

# Set 1
# Target: ABI1, truncated, D143A, DHFR fusion (Arabidopsis thaliana)
# Technique: DHFR PCA, deep sequencing
# Medium: yeast
# Notes: methotrexate growth selection, single substitutions
# Added: (+)-ABA 200 µM
# Baseline: wild-type fitted maximum
# Reading: higher = stronger binding
# Starting sequence: PYL1, truncated, DHFR fusion (Arabidopsis thaliana); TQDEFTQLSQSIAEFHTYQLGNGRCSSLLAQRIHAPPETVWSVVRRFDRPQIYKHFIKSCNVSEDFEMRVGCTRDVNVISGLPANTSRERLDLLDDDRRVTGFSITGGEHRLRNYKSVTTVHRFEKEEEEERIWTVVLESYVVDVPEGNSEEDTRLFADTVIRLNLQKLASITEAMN; partner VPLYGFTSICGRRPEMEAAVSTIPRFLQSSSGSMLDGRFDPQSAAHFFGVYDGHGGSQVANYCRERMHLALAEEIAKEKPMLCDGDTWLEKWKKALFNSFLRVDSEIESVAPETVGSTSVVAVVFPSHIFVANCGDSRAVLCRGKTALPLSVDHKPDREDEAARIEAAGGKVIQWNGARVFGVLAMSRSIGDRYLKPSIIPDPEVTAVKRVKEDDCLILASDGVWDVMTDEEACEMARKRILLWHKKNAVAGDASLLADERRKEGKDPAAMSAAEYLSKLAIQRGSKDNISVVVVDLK
Substitution,relative binding score [%]
A13I,92
E4Y,94.7
R88N,99.9
Q10C,92.3
E174D,76.2
S104R,66.1
R46P,48.8
S63A,107
L156K,80.7
E38S,96.3
D48C,52.3
V40F,-5.38
I33G,-5.44

# Set 2
# Target: Histone acetyltransferase KAT6A, both winged helices, GST fusion (KAT6A, Homo sapiens, UniProt Q92794, residues 1-181)
# Technique: protein binding microarray
# Form: double-stranded DNA, one strand shown
# Medium: in vitro
# Tested at: not given
# Notes: 8-mer, flanks averaged, mean of 2 arrays, mostly near background
# Baseline: not given
# Reading: higher = stronger binding
# Construct (chain): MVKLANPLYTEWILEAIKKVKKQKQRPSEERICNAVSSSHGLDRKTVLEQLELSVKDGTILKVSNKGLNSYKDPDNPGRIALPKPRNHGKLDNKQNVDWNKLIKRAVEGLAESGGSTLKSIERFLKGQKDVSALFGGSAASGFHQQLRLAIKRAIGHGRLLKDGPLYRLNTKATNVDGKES
Sequence,E-score
CCAAAGTC,-0.144
AGCTACTA,-0.0748
AGAATATC,-0.0946
AGCAAGAT,-0.252
CAAGCCAA,0.00967
GATATAAC,0.0312
ACTCAGTG,-0.153
GGCGAGCC,-0.028
CCGGACGG,0.272
GATCTCCC,-0.0102
GCGGACGC,0.269
AAGCAGCT,-0.0764
GAGTAATC,-0.0439
ACGTCAAT,-0.0766
ACCGGAGT,0.186
AGCATAGG,-0.147

# Set 3
# Target: Sal-like protein 4, full length isoform B (SALL4, Homo sapiens, UniProt Q9UJQ4-2, residues 1-616)
# Technique: universal PBM
# Form: double-stranded DNA, one strand shown
# Medium: in vitro
# Tested at: not given
# Notes: 8-mer, flanks averaged, mean of replicates
# Reading: higher = stronger binding
Sequence,E-score
ACCATGTG,0.0347
CCCGGTAG,-0.264
AGCGGAAT,0.0247
GACGTCTA,-0.00183
ATACCACC,0.0513
CACTCTGA,-0.22
CCCCATGC,-0.158
ACACAGGC,-0.00429
GGCTAACA,-0.19
CGGGGAGC,-0.364
AAGCTTAG,-0.0157
ATTAGGAA,0.198
GAAAGGGA,-0.11
CGCCATTC,-0.0568
CGCCTATA,0.116
GTTTTACA,0.0551
GTACCACA,0.103
AACCTACC,-0.179
CGTTGCCC,-0.318
CTCACAGA,0.0687
CTTGTAGC,0.0331
AAAGTGAC,0.0455
TAAAGTAA,0.223
GGCAAGGA,-0.0841
ACATGCTA,0.0531

# Set 4
# Target: RING finger protein unkempt homolog, zinc fingers 1-6, SBP tag (UNK, Homo sapiens, UniProt Q9C0B0, residues 30-357)
# UniProt Q9C0B0, sequence (30-357, looked up): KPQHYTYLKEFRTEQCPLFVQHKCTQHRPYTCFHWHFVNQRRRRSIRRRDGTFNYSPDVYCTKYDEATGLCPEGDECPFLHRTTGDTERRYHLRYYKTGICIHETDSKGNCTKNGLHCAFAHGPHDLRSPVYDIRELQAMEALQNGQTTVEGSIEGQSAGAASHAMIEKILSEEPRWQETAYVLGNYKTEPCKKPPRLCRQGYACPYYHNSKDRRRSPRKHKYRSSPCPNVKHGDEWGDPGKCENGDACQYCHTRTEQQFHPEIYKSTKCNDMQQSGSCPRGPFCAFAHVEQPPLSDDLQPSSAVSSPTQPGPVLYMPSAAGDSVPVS
# Technique: RNA Bind-n-Seq
# Form: RNA
# Medium: in vitro
# Tested at: 100 nM
# Notes: RNA with constant flanks, vertebrate orthologous sites, ends assumed
# Baseline: input RNA pool
# Reading: higher = stronger binding
Sequence,bound/input enrichment
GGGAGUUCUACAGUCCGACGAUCACCCUGUGCUCCAACUGUAGGAAUUGAUUGGCUUCUUGUAUUCUCUGUGAUCUAUGUCACCAUUUUUAUUGUAUAUGCCACUAUGCAGACGGAAAGUAUUCGUUGGCUUAUUCCUGGGCACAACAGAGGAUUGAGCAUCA,0.423 ratio
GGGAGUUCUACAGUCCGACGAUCCUCUUUUCAAGGUUGGAUGUACUGGAAAAGUCAUAGGAAUUGAUCACAUUAAAGAGCUAGUAGAUGACUCAAUAAAUAAUGUCAGGAAGGACGAUCCAACACUUCUGUCUUCAGGGAGAGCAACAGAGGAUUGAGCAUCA,0.636 ratio
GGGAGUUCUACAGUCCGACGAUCGACGCUUUGAUGUAAAAUUUGAAGUAAAGAGCAGCUGAUCACAAGCACAAUCUUCCCCUCUAGCCAUUUAAAAAAAUUAAAAAAUUAUAAAAAACAAAAACCUACUAGUCUUGAACAAACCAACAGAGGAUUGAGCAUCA,6.53 ratio
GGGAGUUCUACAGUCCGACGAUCAAUCAGUAGGAUUACAAAAUACUAAAGUUGCAGUUGAAAGGAUAUCCAAGUAUGUGUUGGUAGUUACAAAAGAAUUAUAGCUGUUAUUGCCUUGUAUUUAUAGCCCUUGUUUCAGGUUUCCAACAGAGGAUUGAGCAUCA,1.03 ratio
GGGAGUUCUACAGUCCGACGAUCCCAAGCUAAAGGAGUUAACCUCUUUAUUUUUGUAUCAAAGAAAGAUUAUUUUGAAAUGAUUAGGGUUUUUACACAACUCUGAAAUUUGUUGCUUUUGUAAACAGAUCGUUUGGUCUUAGGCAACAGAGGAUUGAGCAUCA,0.27 ratio
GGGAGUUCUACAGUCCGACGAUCGUGUUUUGGUACAAAGUUGUGUACCAAUACUCAUCUUCUUUACAUUAUACCAACUAUCCCUAGAAAUAGGAGUUCAAUAUUUUUCAAAAUUUUACAUUGCUGUAUAUUCAAAAUUUUAAACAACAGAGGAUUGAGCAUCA,0.548 ratio
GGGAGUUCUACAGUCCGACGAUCAAGUCCCCUGGGCCGGGACAGAUUUUUUUUUAAUGUCUUGAAACUUAAACUCUGUGCUUAGAGGAGUCUGUAACCUUUUUGUCUUUUUUUUUUUUUUUUUUUUUUAAAGUAACCUCCACCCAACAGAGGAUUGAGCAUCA,2.65 ratio
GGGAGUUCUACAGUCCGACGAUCAAAUUUAUUUCAUGCCCUGGACGCCCUACCGCACCGAUACUUUAAUAGAAUAUGCUUCUUUAGAAGAUUUCCAAAACAGUCGCCAAACAACAACAUACAAACUCCCAAAUCGAGUCGAUGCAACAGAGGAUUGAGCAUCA,1.51 ratio

# Set 5
# Target: CCND2, cyclin fold, Cln2 fusion (human)
# Technique: yeast growth competition, sequencing
# Medium: yeast
# Notes: weak parent motif
# Baseline: not given
# Reading: higher = stronger binding
# Starting sequence: MASTL docking peptide (human); PMIAKNLMCELDE
Substitution,normalised enrichment score
PMIAKNLMCELLE [D12L],-0.0635
PMIATNLMCELDE [K5T],-0.217
PMIAKNLMCELTE [D12T],0.19
PMIAKNLMCELIE [D12I],-0.408
PMIAKNLWCELDE [M8W],0.123
PSIAKNLMCELDE [M2S],0.387
PIIAKNLMCELDE [M2I],0.357
PMIAKNLKCELDE [M8K],-0.0649
PMIAKNLMCRLDE [E10R],-0.0253
PMIAKNGMCELDE [L7G],-0.156
PMWAKNLMCELDE [I3W],0.186
PMIAKNLMCELAE [D12A],0.293
PMIAKNLMCECDE [L11C],-0.204
PMIAKNLHCELDE [M8H],-0.111
PMIARNLMCELDE [K5R],0.0203
PMIAKNLMCGLDE [E10G],0.0357
PMIAKNLMFELDE [C9F],0.189
PMIAKNLMCELHE [D12H],0.111
PMIAKKLMCELDE [N6K],0.241
PMIAKTLMCELDE [N6T],0.248
PMIAKNMMCELDE [L7M],-0.212
PMRAKNLMCELDE [I3R],-0.0852
PMIAKNLMCELWE [D12W],-0.0403
PMIAKNLMCMLDE [E10M],-0.01
PMICKNLMCELDE [A4C],-0.00352

# For quick reference, copied from above (set 3):
Sequence,E-score
ACACAGGC,-0.00429
GGCTAACA,-0.19
CGGGGAGC,-0.364
AAGCTTAG,-0.0157
ATTAGGAA,0.198
GAAAGGGA,-0.11
CGCCATTC,-0.0568
CGCCTATA,0.116
GTTTTACA,0.0551
GTACCACA,0.103
AACCTACC,-0.179
CGTTGCCC,-0.318
CTCACAGA,0.0687
CTTGTAGC,0.0331
